Experimental data of several laboratories.
Parts stem from different laboratories: compare values within a part only.

Series 1 — technique: protein binding microarray; form: double-stranded DNA, one strand shown; sample: in vitro; tested at: not given; relative to: not given; reading: higher = stronger binding; measurement: E-score
Target: Histone acetyltransferase KAT6A, winged helix 1, GST fusion (KAT6A, Homo sapiens, UniProt Q92794, residues 1-85)
Setting: 8-mer, flanks averaged, mean of 2 arrays, mostly near background
Residues (chain): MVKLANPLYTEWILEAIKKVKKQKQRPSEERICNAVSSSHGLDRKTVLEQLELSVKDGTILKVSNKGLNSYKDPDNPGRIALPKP
ACTCCAGT: -0.185
CCTTACTA: -0.083
CGAGCGAG: 0.157
ACGAGTTG: -0.222
ACTTCACG: 0.0762
CCGTGAGC: 0.349
AATGGCGG: 0.143
CAACCTGC: 0.0726
GAAGGTGC: -0.0679
ATCGCGAC: 0.206
GTTAGACA: -0.119
CGGCTTGA: 0.213
AAGAGTCA: -0.273
AGAGCGGG: 0.331
TCAGTCCA: -0.263
ATGTCGAA: -0.133
AACAGCTG: -0.176
CGGGGCCC: 0.286

Series 2 — technique: RNA Bind-n-Seq; form: RNA; sample: in vitro; tested at: not given; relative to: input RNA pool; reading: higher = stronger binding; measurement: bound/input enrichment
Target: RING finger protein unkempt homolog, zinc fingers 1-6, GST-SBP tag (UNK, Homo sapiens, UniProt Q9C0B0, residues 30-357)
UniProt Q9C0B0, sequence (30-357, looked up): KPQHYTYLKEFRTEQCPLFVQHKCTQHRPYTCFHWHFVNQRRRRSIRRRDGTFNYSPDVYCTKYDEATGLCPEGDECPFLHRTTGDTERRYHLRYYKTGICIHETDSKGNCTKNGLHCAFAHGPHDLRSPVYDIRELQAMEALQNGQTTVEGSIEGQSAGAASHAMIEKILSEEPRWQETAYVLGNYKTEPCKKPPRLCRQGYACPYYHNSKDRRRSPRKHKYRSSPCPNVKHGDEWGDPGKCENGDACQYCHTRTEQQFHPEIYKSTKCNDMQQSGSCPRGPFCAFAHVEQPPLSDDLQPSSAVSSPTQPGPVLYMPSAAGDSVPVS
Setting: RNA with constant flanks, human-mouse chimeric sites, ends assumed
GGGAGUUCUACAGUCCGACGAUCAUAAAAGCUAUGUUGAGUGGUCCAGGUCAGUUUGCUGAGAAUGAAACCAACGAGGUCAAUUUUAGAGAGAUCCCCUCACAUGUGCUAUCGAAAGUAUGCAUGUAUUUUACCUACAAGGUCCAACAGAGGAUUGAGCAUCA: 0.334 ratio
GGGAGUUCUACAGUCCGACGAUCUUGCUACUGACUCCCUGGGUCAAGUUCCUGUGGGAGUCUUACAGGCAGUGUUUGGACCUUCUUCGAAACAAUUCUAGAGUAGAGCGCCUUUACCAUGAUAUCGCCCAACAAGCUUUCAAACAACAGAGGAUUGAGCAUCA: 0.147 ratio
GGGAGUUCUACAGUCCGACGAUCUAUAAUAAUCAUGAAAUUCGUUCCGGGAAGCACAUUGGUGUCUGCAUCUCAGUUGCCAACAAUAGGCUUUUUGUGGGCUCGAUUCCUAAGAGUAAAACCAAGGAACAGAUUCUUGAAGAACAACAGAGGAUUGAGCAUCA: 1.13 ratio
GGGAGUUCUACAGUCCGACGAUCGAUCCACAGUGGUCUGAGGAACAGCUGAUUGCUGCAAAAUUCUGUUUUGCUGGCCUUCUUAUAGGCCAGACUGAAGUGGACAUCAUGAGUCAUGCCACACAAGCUAUUUUUGAAAUUCUGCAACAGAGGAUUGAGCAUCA: 0.251 ratio
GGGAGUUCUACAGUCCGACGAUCGAGCCCAGCCGGCAGUUUGUAAAGGACUCAAUUCGGCUGGUUAAAAGAUGCACCAAACCCGACAGAAAAGAAUUCCAGAAGAUUGCCAUGGCAACAGCUAUAGGAUUUGCUAUAAUGGGACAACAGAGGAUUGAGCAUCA: 0.325 ratio
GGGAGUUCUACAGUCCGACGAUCAAAGCCCAAGUAUUUUGAAAAAACUCGAACAGAUUUAACAAGGGUAGCCAGCUUGGAGUCUAGCAACUUGCCAAUGUUGCUUACCAACUGGGGGCUUGUUUUUCUUUUCUUCUUUCAAAUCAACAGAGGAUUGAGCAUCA: 0.167 ratio
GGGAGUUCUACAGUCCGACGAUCACUCAGAGAUCCACCUCCCAAAGUGCUGGGAGUAAAGGUGUGGCCACUCAAUUCUCCUUGAUGGAUAUAUAUUUUUUUUAAUAUGAAUCUUCCUGUUCUUCAUCCAGAGAAAGAUUUGUUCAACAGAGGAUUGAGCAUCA: 0.477 ratio
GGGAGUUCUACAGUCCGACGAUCCUGGCCUGGCCCUCCCCUCUAGUGACCUUUCGUAUAGUCACUGCUUCUGCAUCAGAUACUUUCAGCUCCAAGUCCUGACUGGGUGGGGCACCCAUUUCAGGCAGAAGGUUUUGGUACCCUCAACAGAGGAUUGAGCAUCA: 0.358 ratio
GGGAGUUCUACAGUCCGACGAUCCACGUGUCUGCAGUGCUUGAUGUGGAUUACUCUCCCACUGGGAAGGAAUUUGUGUCUGCCAGCUUUGAUAAGUCUAUUAGAAUCUUUCCUGUGGACAAGAGCCGAAGCAGGGAAGUGUAUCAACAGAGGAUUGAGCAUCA: 0.242 ratio
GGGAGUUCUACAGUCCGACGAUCUCAUUUUUCUCUUUUCUGAUCGUCAGGUAGGAAAAGCCUAAAGAUUAGGUUGUAAGAAAAACAGAAGCCAUGUUUCGAAGACCUGUAUUACAGGUAUUUCGUCAGUUUGUAAGACAUGAGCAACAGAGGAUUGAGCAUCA: 1.47 ratio
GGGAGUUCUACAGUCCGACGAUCAAAGCCCUUGAAGAAAAAAAAAACUCGAACAGAUUUGACAAGGGUAGCCAGCUUGGAGUCUAGCAACUUUGCCAAUGGUUUACCAAUCUGGGGGCUUGUUUUUCUUUUCUUCUUUCAAAUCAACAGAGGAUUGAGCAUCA: 0.427 ratio

Series 3 — technique: RNA Bind-n-Seq; form: RNA; sample: in vitro; tested at: 365 nM; relative to: no-protein control; reading: higher = stronger binding; measurement: RBNS enrichment (R)
Target: RNA binding protein fox-1 homolog 2, RRM domain, GST-SBP tag (RBFOX2, Homo sapiens, UniProt O43251-10, residues 100-194)
Setting: natural RNA segment, single round, ends assumed
Target sequence (chain): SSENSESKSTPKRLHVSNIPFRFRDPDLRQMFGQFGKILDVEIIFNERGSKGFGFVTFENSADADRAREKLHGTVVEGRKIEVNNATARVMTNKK
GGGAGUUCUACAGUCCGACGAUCAGAACCUAACCAAAAGGUUUCCCGUUCAGAAGUUUCCUUAGCUCUCGUCCCAAGCUAUUCGCUCACAUUAACAAGUCAAAGUGCCUGAAGCAUAACUCAUUUACCUGUAUUGGAAUUCUCGGGUGCCAA: 0.53
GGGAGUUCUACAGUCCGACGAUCUUUAUUGUUUUUACUUUGACUGGAAUGUUUAUUGUGAACUGUAUUUAUUUUUAUACUUUGAUUUUCACUAGUUUUGCUUUUAUGUAAAAGUCAAAAUAAACUUUUCAUCCUGGAAUUCUCGGGUGCCAA: 0.604
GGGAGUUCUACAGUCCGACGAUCCAAAGCAGGGUGGGGUAGGUGACAUUUGUGUAUCCACAUUCUUACCUUUGGUAGUCAGGUUUGGCUACUUUGCAGCUCGCCCAAAGAGAUACAACCUAAUCCCCAACCUAUGGAAUUCUCGGGUGCCAA: 0.629
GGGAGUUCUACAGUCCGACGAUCCCUGUAUAUAUUGCUUUAAUAGAGCCACGAUUUGUAUAUGUGCUGUUCAUUAGAGCAAAUUCAGGGGAAUUUUUGUUCUUUUUUUUUUUAUUUGGGGGCACUAAGUUUAGUGGAAUUCUCGGGUGCCAA: 0.892
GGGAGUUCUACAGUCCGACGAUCGAAAUCUGACACUAAGGUACCCUGAGCAUAGGAGGGGCAUGGGUCGCACCAUUGCACUUUAGAAAUAACACGGAGUGUUCCCAAGGGCCUCAGGUGGACUGCCACCCUGCUGGAAUUCUCGGGUGCCAA: 1.01
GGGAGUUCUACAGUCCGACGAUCGUGCUUGGAAGCCUGUUGACUGUGCUUAAGGUUAGGCAUUUAGGAAGCACACUGCUUUUUAAACGACCACAGAAAGAAAGGACAAUUGUAAGAAGUAAAAACUUAUUUGGUGGAAUUCUCGGGUGCCAA: 0.458
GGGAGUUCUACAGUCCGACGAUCAUUGUGGGGAGGUCUACUUUAGACAACUUGGUUUUGCACAUAUUUUCUCUAAUUUCUCUGUUCAGAGCCCCAGCAGACCUUAUUACUGGGGUAAGGCAAGUCUGUUGACUUGGAAUUCUCGGGUGCCAA: 0.429
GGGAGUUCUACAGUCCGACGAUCAGAGCUGGGUCUGCAAUAGCUAGUCUAAAAACUACUUGUGUGUCAGUCCUCUGGUUAUAGUAUAUAAGAGCCUGAGGAGGUCUGGCAAGAUAGAUGGUGUAUUAUUUAUGUGGAAUUCUCGGGUGCCAA: 2.56
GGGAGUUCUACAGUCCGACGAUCGAAGCUGGGUCUGUAAGGAUUCACACAAUGGCAAGACUGAGGAUUUAUACUGAAUUGUCAUCAAUCAGUCCUACCAGAUGGAUUUCAACAUUUAAACCUGGAGACUCUUCUGGAAUUCUCGGGUGCCAA: 0.183

Series 4 — technique: universal PBM; form: double-stranded DNA, one strand shown; sample: in vitro; tested at: not given; reading: higher = stronger binding; measurement: E-score
Target: Sal-like protein 4, full length isoform B (SALL4, Homo sapiens, UniProt Q9UJQ4-2, residues 1-616)
Setting: 8-mer, flanks averaged, mean of replicates
CTAAGACA: 0.0863
CCGCAAGG: -0.225
GATTAGGC: 0.0127
CATGGTTC: -0.109
GGACCACC: -0.247
GGCTGAAC: -0.235
CCAGGGAA: -0.253
ACCATTCA: 0.103
ATAGCTAC: 0.234
CTTTGATA: 0.17
ACTACTCT: 0.00174
CCTACGCA: -0.034
CGTGTCAG: -0.14
GACGGCGC: -0.252
TCTCTCCA: -0.105
CGGCGCCC: -0.311
CAATGGCA: 0.0439
TAGGACCA: -0.0717
CCAACTGG: -0.1
ACACTCGA: -0.0404
CCGAGAAC: -0.153
AGACGCCA: -0.093
